# Measurements pooled from the literature.
# Numbered parts are unrelated; each lists some results of a single study. Changes are numbered by the printed parent chain.

# Sample 1 — technique: DHFR PCA, deep sequencing; matrix: yeast; together with: (+)-ABA 17 µM; relative to: wild-type fitted maximum; direction: higher = stronger binding
# Target: ABI1, truncated, D143A, DHFR fusion (Arabidopsis thaliana)
# Notes: methotrexate growth selection, single substitutions
# Starting sequence: PYL1, truncated, DHFR fusion (Arabidopsis thaliana); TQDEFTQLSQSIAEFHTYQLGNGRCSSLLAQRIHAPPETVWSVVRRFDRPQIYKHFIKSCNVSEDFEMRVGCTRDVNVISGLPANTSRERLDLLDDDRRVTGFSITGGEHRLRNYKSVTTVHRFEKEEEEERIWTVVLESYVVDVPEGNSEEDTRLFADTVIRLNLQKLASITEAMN; partner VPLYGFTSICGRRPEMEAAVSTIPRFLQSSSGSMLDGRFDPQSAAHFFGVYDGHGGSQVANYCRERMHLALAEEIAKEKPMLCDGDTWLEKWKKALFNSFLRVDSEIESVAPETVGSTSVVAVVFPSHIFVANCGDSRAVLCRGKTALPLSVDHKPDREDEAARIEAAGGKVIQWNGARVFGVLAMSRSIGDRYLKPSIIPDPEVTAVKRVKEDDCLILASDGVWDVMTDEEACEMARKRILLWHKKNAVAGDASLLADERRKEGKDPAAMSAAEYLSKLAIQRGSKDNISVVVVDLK
Change,relative binding score [%]
A170Y,-8.45
V137C,36.8
N61W,78.3
E38V,22.8
V76F,-2.16
V76P,-6.89
R88H,88.8
E151T,77.7
T119F,4.48
E125P,86.7
D96W,-17.2
K54I,6.59
P36T,75.4
A158Y,1
T39A,79.9
R49I,48.5
E129G,99.2
Q7I,73.1

# Sample 2 — target: CCND2, cyclin fold, Cln2 fusion (human); technique: yeast growth competition, sequencing; matrix: yeast; notes: weak parent motif; relative to: not given; direction: higher = stronger binding
# Starting sequence: E2F3 docking peptide (human); PPAKRRLELGESG
Change,normalised enrichment score
PAAKRRLELGESG [P2A],0.075
PPAKARAELGESG [R5A L7A],0.0978
PPAKKRLELGESG [R5K],-0.57
PPAKKRLEFGESG [R5K L9F],0.634
PPAKRRLEAGESG [L9A],0.452
PPAKARLELGESG [R5A],-0.219
PPAKRRLELGASG [E11A],0.362
PPAKRRLALGESG [E8A],0.11
PPAARRLELGESG [K4A],0.218

# Sample 3 — target: CEBPB, bZIP domain (human); technique: DHFR protein complementation; matrix: yeast; relative to: wild-type JUN-FOS pair; direction: higher = stronger binding
# Notes: single substitutions, most at no-binding floor
# Starting sequence: JUN, bZIP domain (human); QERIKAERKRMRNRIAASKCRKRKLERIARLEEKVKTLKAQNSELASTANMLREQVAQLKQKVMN; partner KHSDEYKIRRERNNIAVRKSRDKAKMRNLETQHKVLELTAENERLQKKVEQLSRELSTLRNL
Change,binding fitness [natural log]
L38E,-1.5
A46L,-1.25
S47K,-1.06
S47E,-1
K34S,-1.42
N42H,-1.47
L31Q,-1.31
S47H,-1.33
E54G,-1.35
I28E,-1.09
I28K,-1.07
N42D,-1.58
Q55W,-1.41
E32W,-1.48
A49L,-1.34
E44V,-1.35
V35Q,-1.59
Q55L,-1.39
R30F,-1.35
T48P,-1.51

# Sample 4 — technique: universal PBM; form: double-stranded DNA, one strand shown; matrix: in vitro; concentration: not given; direction: higher = stronger binding
# Target: Sal-like protein 4, full length isoform B (SALL4, Homo sapiens, UniProt Q9UJQ4-2, residues 1-616)
# Notes: 8-mer, flanks averaged, mean of replicates
# Construct (chain): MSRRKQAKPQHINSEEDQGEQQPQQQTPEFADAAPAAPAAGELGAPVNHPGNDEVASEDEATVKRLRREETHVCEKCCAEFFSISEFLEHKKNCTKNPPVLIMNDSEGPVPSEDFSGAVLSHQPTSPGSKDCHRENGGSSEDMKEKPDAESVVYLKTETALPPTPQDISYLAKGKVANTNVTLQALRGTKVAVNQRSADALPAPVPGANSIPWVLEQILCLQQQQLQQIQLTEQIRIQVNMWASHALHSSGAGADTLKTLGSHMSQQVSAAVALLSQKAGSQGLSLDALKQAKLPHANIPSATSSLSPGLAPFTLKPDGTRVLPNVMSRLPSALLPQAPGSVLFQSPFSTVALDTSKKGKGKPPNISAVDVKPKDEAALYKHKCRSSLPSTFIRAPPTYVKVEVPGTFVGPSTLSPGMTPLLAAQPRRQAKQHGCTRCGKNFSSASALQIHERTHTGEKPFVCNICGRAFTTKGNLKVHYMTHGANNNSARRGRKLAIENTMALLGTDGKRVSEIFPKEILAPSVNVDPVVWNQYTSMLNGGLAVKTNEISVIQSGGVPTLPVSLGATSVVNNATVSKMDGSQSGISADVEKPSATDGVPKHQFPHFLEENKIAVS
Strand,E-score
GGTTGATA,0.0444
CTCTCTAC,0.0266
GGTCCATA,0.136
ATCCCCCA,-0.0659
GCGATGAA,0.00468
CAATCTAA,0.125
CACACTTA,0.148
AACGGTTC,-0.104
GGCCGTCA,-0.221
AAACGGAA,0.0666
GGCGACCA,-0.239
TGACGCCA,-0.151
ACAGTCGT,-0.0737
AGGGGTAG,-0.139
ACCTGGGA,-0.113
ATGATAGA,0.207
AGAGTGAG,-0.0026
AATCGCAT,0.0896
GCCAACCC,-0.183
ATTTGATA,0.305
CGGAACCG,-0.376
ACTGCTTG,-0.0282
GGAGATTA,0.111

# Sample 5 — technique: RNA Bind-n-Seq; form: RNA; matrix: in vitro; concentration: not given; relative to: input RNA pool; direction: higher = stronger binding
# Target: RING finger protein unkempt homolog, zinc fingers 1-6, GST-SBP tag (UNK, Homo sapiens, UniProt Q9C0B0, residues 30-357)
# Sequence of UniProt Q9C0B0 (30-357, looked up): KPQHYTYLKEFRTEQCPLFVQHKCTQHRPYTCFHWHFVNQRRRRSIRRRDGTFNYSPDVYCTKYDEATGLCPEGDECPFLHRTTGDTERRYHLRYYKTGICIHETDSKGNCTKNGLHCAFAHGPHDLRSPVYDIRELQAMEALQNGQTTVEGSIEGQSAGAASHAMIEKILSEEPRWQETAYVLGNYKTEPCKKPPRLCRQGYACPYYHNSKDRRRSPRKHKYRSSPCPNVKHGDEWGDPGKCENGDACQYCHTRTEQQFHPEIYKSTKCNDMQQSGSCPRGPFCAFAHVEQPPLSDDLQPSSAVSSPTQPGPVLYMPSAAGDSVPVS
# Notes: RNA with constant flanks, human-mouse chimeric sites, ends assumed
# Shared flanks, not repeated: GGGAGUUCUACAGUCCGACGAUC … CAACAGAGGAUUGAGCAUCA
Strand,bound/input enrichment [ratio]
CACGUGUCUGCAGUACUUGAUGUGGACUACUCUCCCACUGGGAAGGAGUUUGUGUCUGCCAGCUUUGAUAAAUCUAUUAGAAUCUUUCCUGUGGACAAGAGCCGAAGCAGGGAAGUGUAU,0.187
GGCUGCUGGUGACUGUCCUGGAGUGGCUGGAGUUCCCCCGGAACCUGGGCCAGACUAAUUUUAGAAAAUGCCAAGUAGGAAGUUUGUCGAUGGUGAAGUGGUCAGAGGCCGAUGGCCUGG,1.6
CACGUGUCUGCAGUACUUGAUGUGGACUACUCUCCCACUGGGAAGGAAUUUGUGUCUGCUAGUUUCGAUAAGUCUAUUAGAAUCUUUCCUGUAGACAAGAGCCGAAGCAGGGAAGUGUAU,1.25
CAGGGCACAGCACCUACCCCCUCCUCCUUUCCACACCUGCAAACCCUUUUACUUGGGCUGAAUAUUUAGUGUAAUUACAUCUCAGCUUUGAGGGCUCCUGUGGCAAAUUCCCGGAUUAAA,0.736
GUGACUGACAUUAAAAUUUCCCCUCAGCAAAGAAGUGCAGUAGUCACCAUAAUUCCAUCUGUGGUGAAUGCCAAUCAGAUUGUGGAGCUGGUCCCAGACCUCAGUUUAGACAUGGGAACU,0.309
CACACACUCUUCUGCGGCACCCUCAUUUUGCAGGCCCGGGCCUAUGUGGGACCGCACGUCCUGGCAGUGGUGACCCGCACAGGGUUCUGCACGGCAAAAGGGGGCCUGGUGAGCUCCAUC,0.102
UAAAUUAGGGCUGCCGUUUUCUGUUUCUCCCUGGGCUGCGGAAAGCCAGGCGGUUUUAUCUAGCUUAUACAAGGCUGCUGGUGUUCCCUCUUUUUUUCCACGAGGGUUUUUUUUCCAGCA,1.24
AACAGAUUGUCUUUAAGCAUUCCAAGCGAGAAUGCUGGGGUGAUCAUUGUUGCCCAUGUGCCUUCUGACUGAGCUUUAAUGCUGUUCCAUGUUACAUUGAUGUUCUUCUCCAGAAUUGUU,0.119
AUAGAUGAAAUUGAUGUGGACCAGGAAGGAAUUGCUGAAAUGAUCCUGGAUGAAAAUGCUAUUGCUCAGGUCCCACGCCCUGGAACGUCUUUGAAGCUCCCUGGCACUAAUCAGACAGGA,0.296
GCAGGAUCUUCUAAGUACCAGUGGGACAUUAUGAAAUCCCUUGGGCUCUCUGAUGACGACAUAGUGAAAUUUUCUGAAGCAGAGCACUGGCUUGAUUAUUUCCCACCACUGGCUAUUCAG,0.232
ACUCUUGACUCUUUCCAUCCUCUUCCUUUUCCUCUUGAUAUUCAAGGCCAUGAAUCCCAAAAUAACAGUCUUAGUGGCUAGCACCCAAACAGAGGUGGGUGCCAUCCACCCCAGUGUCUC,0.444

# Sample 6 — technique: protein-binding microarray; form: double-stranded DNA, one strand shown; matrix: in vitro; concentration: 250 nM; notes: 60-bp whole probe; together with: salmon DNA 0.4 mg/ml; relative to: random background probes; direction: higher = stronger binding; shared flanks, not repeated: GCCTAGCAC … GTCTTGATTCGCTTGACGCTGCTG
# Target: Interferon regulatory factor 7, full length, phosphomimetic (IRF7, Homo sapiens, UniProt Q92985, residues 1-503, S101K/S471D/S472D/S475D/S476D/S477D/S483D/S484D/S487D)
# Sequence of UniProt Q92985 (whole entry, unmodified, looked up): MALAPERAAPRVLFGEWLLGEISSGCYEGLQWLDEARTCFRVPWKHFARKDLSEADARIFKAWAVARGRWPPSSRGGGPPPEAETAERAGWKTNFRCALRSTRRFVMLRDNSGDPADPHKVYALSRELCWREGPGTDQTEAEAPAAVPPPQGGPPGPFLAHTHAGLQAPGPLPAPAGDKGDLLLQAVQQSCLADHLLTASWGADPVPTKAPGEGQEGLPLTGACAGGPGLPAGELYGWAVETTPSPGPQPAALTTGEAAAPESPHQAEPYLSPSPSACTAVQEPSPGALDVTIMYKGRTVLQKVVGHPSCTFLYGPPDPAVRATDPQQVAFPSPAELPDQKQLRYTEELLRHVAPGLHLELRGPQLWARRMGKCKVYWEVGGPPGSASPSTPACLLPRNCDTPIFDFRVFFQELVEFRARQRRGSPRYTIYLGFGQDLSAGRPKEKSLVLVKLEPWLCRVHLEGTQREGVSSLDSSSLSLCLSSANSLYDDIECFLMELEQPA
Strand,log fluorescence
TTAGAACTGGGGTATCGACTAGTGCTA,-0.337 z-score
TAGTTTTCATTTTCTGAATGTGTGCTA,6.16 z-score
TTTGGACTGCTTCTCCTTTAGTGCTAG,0.00118 z-score
GCCGATTTCAGTTTCGAGACGTGCTAG,5.16 z-score
TTAGGTATCGTGTATCGGTTAGTGCTA,0.669 z-score
TTAGGTATCGGGACTGGCTTAGTGCTA,-0.0416 z-score
TTAGATATCGGTCTCGGTTAGTGCTAG,1.57 z-score
TTAGAACTGAGTTTCGATTGGTGCTAG,9.35 z-score
GTAGGTATCGGTTTCGGTTAGTGCTAG,10.7 z-score
GAAGGTCTCCTTATCCTGACGTGCTAG,0.151 z-score
TTCGGTATCGGTCTCGGTTAGTGCTAG,2.21 z-score
TCCCTTCAACAGTGCTGGCTGTGCTAG,0.558 z-score
TTAGGCCTGGGACTGGGTTAGTGCTAG,-0.265 z-score
GACGATATGAGTTTCGAGACGTGCTAG,3.06 z-score
TTAGATTTCAGTATGGATTAGTGCTAG,0.191 z-score
TTAGGTTTCGACACTGGGTTTGTGCTA,3.18 z-score
TTAGGACTACTTCTCCTTTAGTGCTAG,0.555 z-score

# Sample 7 — technique: protein-binding microarray; form: double-stranded DNA, one strand shown; matrix: in vitro; concentration: not given; direction: higher = stronger binding
# Target: Cyclic AMP-responsive element-binding protein 1 (CREB1, Homo sapiens, UniProt P16220, residues 1-327, full length assumed)
# Sequence of UniProt P16220 (whole entry, looked up): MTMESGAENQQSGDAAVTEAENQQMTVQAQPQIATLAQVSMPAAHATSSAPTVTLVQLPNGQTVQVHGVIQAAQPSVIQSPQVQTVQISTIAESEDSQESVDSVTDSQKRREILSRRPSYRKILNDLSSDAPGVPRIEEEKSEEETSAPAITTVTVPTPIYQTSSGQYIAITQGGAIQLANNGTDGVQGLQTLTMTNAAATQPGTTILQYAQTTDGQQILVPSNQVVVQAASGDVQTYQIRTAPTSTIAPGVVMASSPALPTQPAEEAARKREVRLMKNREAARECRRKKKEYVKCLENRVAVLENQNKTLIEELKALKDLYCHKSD
# Notes: k-mer, scored over probes, only values ≥0.25
Strand,E-score
CATGACG,0.477
ATTACAA,0.256
GTAATTA,0.375
ATACGTA,0.413
GTTATGA,0.293
CGTCAGA,0.369
CTACGTA,0.412
AACGTAA,0.333
AGTATGA,0.311
ACGTAAG,0.331
ACGTTGA,0.306
CAAAACA,0.266
ACATCAC,0.306
ACGTAGG,0.282
CGCGTCA,0.477
TAACGTA,0.307
CGTTACA,0.255
GTAATCA,0.252
GACGTAC,0.342
TAAATGA,0.262
ATAAAAA,0.29
GACGAAA,0.267
ATCGTCA,0.384
ACGACGT,0.323
CTATTAC,0.304

# Mixed results
Molecule,target,test,system,setting,scale,endpoint,result
"PhoQ, residues 284 288 289 292 302 303 GASLAW","PhoP, residues 12 14 15 18 19 VQGLL (Escherichia coli, UniProt P23836)","Sort-seq, item: YFP reporter",E. coli,"PhoQ-PhoP variant library, together with: 10 µM Mg2+","relative to: high Mg2+ state, higher = stronger signaling",fold induction,17.5

# Some of these lines once more (sample 3):
Change,binding fitness [natural log]
S47K,-1.06
S47H,-1.33
A49L,-1.34
K34S,-1.42
L31Q,-1.31
I28E,-1.09
E54G,-1.35
N42D,-1.58
V35Q,-1.59
Q55W,-1.41
E32W,-1.48
I28K,-1.07
R30F,-1.35
Q55L,-1.39
N42H,-1.47
S47E,-1
L38E,-1.5
E44V,-1.35
A46L,-1.25
